Published values collected from several papers.
Protocols differ between the studies behind these lines. ± gives the spread as reported.

CCNc1cc2[o+]c3cc(NCC)c(C)cc3c(-c3ccccc3C(=O)OCCOCC[18F])c2cc1C — tissue uptake (rat, blood; 60 min): 0.07 ± 0.01 %ID/g
CC(C)C[C@@H](NC(=O)[C@@H](CCCNC(=N)N)NC(=O)[C@@H](Cc1c[nH]cn1)NC(=O)[C@@H](Cc1c[nH]c2ccccc12)NC(=O)[C@@H](Cc1c[nH]cn1)NC(=O)[C@@H](Cc1ccccc1)NC(=O)[C@H](NC(=O)[C@@H](Cc1ccc(O)cc1)NC(=O)CNC(=O)CNC(=O)CCOCCOCCOCCNC(=O)CN1CCN(CC(=O)O)CCN(CC(=O)O)CC1)[C@H](C)O)C(=O)N[C@H](CC(N)=O)C(=O)N1CCC[C@@H]1C(=O)O [gallium-68 labelled] — tissue uptake (male C57BL/6 mice, tumour; intravenous, 1.85 MBq, 60 min, added: GP12 blocking): 0.66 ± 0.17 %ID/g
CCN(CC)c1ccc2c(-c3ccccc3C(=O)OCCOCC[18F])c3ccc(=[N+](CC)CC)cc-3oc2c1 — tissue uptake (rat, kidney; 60 min): 9.28 ± 0.66 %ID/g
O=C(O)CC[C@H](NC(=O)O[C@@H](CCCCNC(=O)c1ccc([18F])cc1)C(=O)O)C(=O)O — tissue uptake (mouse, PC-3 PIP/flu xenografts, spleen; 60 min): 0.45 ± 0.31 %ID/g
N=C(N)NCc1ccc(C(=O)NCCCC[C@H](NC(=O)CCCCCCC(=O)NCCCC[C@H](NC(=O)N[C@@H](CCC(=O)O)C(=O)O)C(=O)O)C(=O)O)cc1[211At] — tissue uptake (SCID mouse, PC-3 xenografts, thyroid; 2 h): 1.03 ± 0.26 %ID/g
COc1cc2ncnc(Oc3cccc(N[11C](=O)Nc4cc(C(C)(C)C(F)(F)F)on4)c3)c2cc1OC — tissue uptake (Balb/c nude mouse, female, A375 melanoma xenograft, large intestine; 6.6 MBq, 30 min): 4.88 ± 0.25 %ID/g
CN(C)c1ccc(C(=O)NCCCCN2CCN(c3ccccc3O[11CH3])CC2)cc1 — tissue uptake (male Sprague Dawley rat, liver; iv, 30 min; baseline: untreated): 2.1 %ID/g
CCCC[C@H](NC(=O)CN1CCC(NC(=O)CN2CCC(NC(=O)CN3CCN(CC(=O)O)CCN(CC(=O)O)CCN(CC(=O)O)CC3)CC2)CC1)C(=O)N[C@H]1CC(=O)NCCCC[C@@H](C(N)=O)NC(=O)[C@H](Cc2c[nH]c3ccccc23)NC(=O)[C@H](CCCNC(=N)N)NC(=O)[C@@H](Cc2ccccc2)NC(=O)[C@H](Cc2c[nH]cn2)NC1=O [gallium-68 labelled] — tissue uptake (C57BL/6J mice male B16-F10 tumour, stomach; 1 h post injection, unblocked): 2.8 ± 3.8 %ID/g
O=C(c1ccc(F)cc1)C1CCN(C2Cc3c(cccc3OCC[18F])CC2O)CC1 (single isomer, unassigned; (-)) — tissue uptake (Sprague-Dawley rat, male, heart; intravenous, dose not given, 60 min): 0.357 ± 0.068 %ID/g
CN[C@](C)(C[18F])C(=O)O — tissue uptake (SCID mouse U87 xenograft, spleen; 15 min, post injection): 12 ± 1.9 %ID/g
COc1ccc(C)cc1NC(=O)OC1CC2CCCC(C1)N2Cc1ccc(CC[18F])cc1 (centres unmarked) — tissue uptake (BALB/c mice, EMT6 tumour, brain; 1 h): 1.55 ± 0.4 %ID/g
N=C(N)NCc1ccc(C(=O)NCCCC[C@H](NC(=O)CCCCCCC(=O)NCCCC[C@H](NC(=O)N[C@@H](CCC(=O)O)C(=O)O)C(=O)O)C(=O)O)cc1[131I] — tissue uptake (SCID mouse, PC-3 xenografts, thyroid; 1 h): 0.11 ± 0.13 %ID/g
C[S]1CC[S]2CC[P](CO)(CO)[99Tc+]12.[C-]#[O+].[C-]#[O+].[C-]#[O+] — tissue uptake (CF-1 mice, female, feces; intravenous, 24 h): 26 %ID
N=C(N)NCc1ccc(C(=O)NCCCC[C@H](NC(=O)N[C@@H](CCC(=O)O)C(=O)O)C(=O)O)cc1[131I] — tissue uptake (SCID mouse, PC-3 xenografts, brain; 14 h): 0.03 %ID/g
C=Cc1cc(O)cc2nc(-c3ccc(O)c([76Br])c3)oc12 — tissue uptake (female C57BL/6 mouse, blood; 1 h, high dose, added: estradiol 20 µg blocking): 0.41 ± 0.1 %ID/g
N=C(N)NCc1ccc(C(=O)NCCCC[C@H](NC(=O)N[C@@H](CCC(=O)O)C(=O)O)C(=O)O)cc1[211At] — tissue uptake (SCID mouse, PC-3 xenografts, liver; 4 h): 4.37 ± 2.96 %ID/g
CCN(CC)c1ccc2c(-c3ccccc3C(=O)OCCC[18F])c3ccc(=[N+](CC)CC)cc-3oc2c1 — tissue uptake (rat, skin; 60 min): 0.2 ± 0.07 %ID/g

A few entries again:
N=C(N)NCc1ccc(C(=O)NCCCC[C@H](NC(=O)N[C@@H](CCC(=O)O)C(=O)O)C(=O)O)cc1[211At] — tissue uptake (SCID mouse, PC-3 xenografts, liver; 4 h): 4.37 ± 2.96 %ID/g
CN[C@](C)(C[18F])C(=O)O — tissue uptake (SCID mouse U87 xenograft, spleen; 15 min, post injection): 12 ± 1.9 %ID/g
C=Cc1cc(O)cc2nc(-c3ccc(O)c([76Br])c3)oc12 — tissue uptake (female C57BL/6 mouse, blood; 1 h, high dose, added: estradiol 20 µg blocking): 0.41 ± 0.1 %ID/g
